Published values of several laboratories.
Numbered parts are unrelated; each lists some results of a single study. Substitutions count along the parent as printed.

Set 1
Target: Protein C-ets-1 (ETS1, Homo sapiens, UniProt P14921, residues 1-441, K379A, full length assumed)
Technique: protein-binding microarray
Form: double-stranded DNA, one strand shown
Medium: in vitro
Concentration: not given
Setting: k-mer, scored over probes, only values ≥0.25
Direction: higher = stronger binding
Construct (chain): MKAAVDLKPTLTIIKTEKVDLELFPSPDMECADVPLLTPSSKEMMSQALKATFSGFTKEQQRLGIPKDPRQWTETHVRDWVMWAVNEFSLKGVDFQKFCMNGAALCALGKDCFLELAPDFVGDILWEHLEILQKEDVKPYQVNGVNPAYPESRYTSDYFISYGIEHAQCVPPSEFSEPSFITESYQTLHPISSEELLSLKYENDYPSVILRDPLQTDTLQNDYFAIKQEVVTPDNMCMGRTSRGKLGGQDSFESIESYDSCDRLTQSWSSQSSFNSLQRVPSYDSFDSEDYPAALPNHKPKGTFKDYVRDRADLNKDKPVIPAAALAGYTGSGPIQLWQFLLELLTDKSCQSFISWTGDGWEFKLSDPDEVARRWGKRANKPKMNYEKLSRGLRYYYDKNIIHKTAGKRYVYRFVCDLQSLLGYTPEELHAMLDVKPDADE
Sequence | E-score
CCCGGCCG | 0.379
ATAATTAC | 0.287
CCGGCCGG | 0.455
ATAATTGC | 0.261
CGGCATGC | 0.26
CACCGGAC | 0.364
CGATATTA | 0.262
CAATAATA | 0.265
CCCGGAAC | 0.312
AAGATAAT | 0.25
ATACTGTA | 0.252
AATATCGT | 0.259
AGGTACCG | 0.352
CACAATGG | 0.281
CGTCCGGC | 0.28
CGCCGGCA | 0.303
CGTACTTC | 0.253

Set 2
Target: ABI1, truncated, D143A, DHFR fusion (Arabidopsis thaliana)
Technique: DHFR PCA, deep sequencing
Medium: yeast
Setting: methotrexate growth selection, single substitutions
Together with: (+)-ABA 58 µM
Reference: wild-type fitted maximum
Direction: higher = stronger binding
Starting sequence: PYL1, truncated, DHFR fusion (Arabidopsis thaliana); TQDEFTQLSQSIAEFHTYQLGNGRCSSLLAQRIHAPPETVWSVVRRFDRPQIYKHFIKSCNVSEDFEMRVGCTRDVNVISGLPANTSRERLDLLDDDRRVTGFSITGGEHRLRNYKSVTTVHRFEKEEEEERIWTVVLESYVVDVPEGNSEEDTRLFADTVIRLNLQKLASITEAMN; partner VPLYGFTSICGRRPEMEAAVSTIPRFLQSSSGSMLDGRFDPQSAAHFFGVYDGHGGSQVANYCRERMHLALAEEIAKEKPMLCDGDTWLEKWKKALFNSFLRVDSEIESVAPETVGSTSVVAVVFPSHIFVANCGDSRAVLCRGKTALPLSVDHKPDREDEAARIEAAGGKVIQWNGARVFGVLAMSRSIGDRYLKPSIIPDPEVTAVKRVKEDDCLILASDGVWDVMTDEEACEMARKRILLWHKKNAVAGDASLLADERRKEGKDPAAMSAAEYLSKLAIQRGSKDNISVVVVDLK
Change | relative binding score [%]
K168T | 84.7
Y53T | 9
D96Q | 30.5
A84R | -3.22
V143R | 3.31
R123M | 81.1
S171C | 81.6
E14H | 63.1
Q51H | 82.6
T106I | 106
T135Y | -11.6
G148L | 47.9
D48V | -3.59
R74H | -11.7
K126C | 96.6
L138V | 66.2

Set 3
Target: Sal-like protein 4, full length isoform B (SALL4, Homo sapiens, UniProt Q9UJQ4-2, residues 1-616)
Technique: universal PBM
Form: double-stranded DNA, one strand shown
Medium: in vitro
Concentration: not given
Setting: 8-mer, flanks averaged, mean of replicates
Direction: higher = stronger binding
Sequence | E-score
CGGCACAC | -0.243
GACCAGGC | -0.295
TACCCGCA | -0.122
TCGCAGCA | -0.0492
CGCAAAAG | -0.0913
GCATTCAC | 0.0712
AACCGCTC | -0.149
AAAACTAG | 0.14
GTTCAGAA | 0.0493
ATCCCGTG | -0.0516
AGAGTGAT | 0.0579
ACGGGGGA | 0.00102
ACCTACGC | -0.123
ACTATCTC | 0.0718
AAGGTCAC | -0.127
CGAATTTA | 0.159
ATTCGAGA | 0.0954

Set 4
Target: Prothrombin, mature alpha-thrombin (F2, Homo sapiens, UniProt P00734)
Technique: aptamer microarray, sandwich
Form: DNA with 2'F-ANA
Medium: in vitro
Concentration: 200 nM
Setting: whole 15-mer aptamer, many near background
Together with: Cy3 exosite-II aptamer, 400 nM
Direction: higher = stronger binding
Sequence: GGTTGGTGTGGTTGG
Modification | mean fluorescence intensity [a.u.]
2'F-ANA at 1 2 4 8 12 13 14 15 | 58.8
2'F-ANA at 2 5 6 10 11 14 | 55.7
2'F-ANA at 2 4 11 12 13 | 379
2'F-ANA at 3 4 5 6 8 9 10 11 12 | 69.3
2'F-ANA at 1 2 4 5 7 9 10 11 12 14 | 47.7
2'F-ANA at 1 2 3 5 6 7 8 9 10 12 15 | 80.3
2'F-ANA at 2 3 4 7 8 9 11 13 | 497
2'F-ANA at 7 8 9 10 | 206
2'F-ANA at 1 4 5 7 11 15 | 52.4
2'F-ANA at 2 5 9 11 13 14 | 413
2'F-ANA at 1 2 5 6 9 10 11 12 | 53.7
2'F-ANA at 1 4 5 7 8 11 14 15 | 46.5
2'F-ANA at 1 4 6 8 13 | 83.3
2'F-ANA at 1 3 7 10 11 13 14 | 81
2'F-ANA at 1 2 3 6 8 12 14 | 90.9
2'F-ANA at 1 4 8 9 12 | 348
2'F-ANA at 1 2 3 4 6 8 9 10 11 12 13 14 15 | 55.7
2'F-ANA at 1 3 4 9 11 13 | 132
2'F-ANA at 2 3 5 7 10 12 13 | 56.2
2'F-ANA at 4 6 7 8 9 12 | 536
2'F-ANA at 1 3 4 5 6 7 8 9 14 | 43.8

Set 5
Target: CCNA2, cyclin fold, Cln2 fusion (human)
Technique: yeast growth competition, sequencing
Medium: yeast
Setting: strong parent motif
Reference: not given
Direction: higher = stronger binding
Starting sequence: PPP1R3F docking peptide (human); VAPRRVLFADEAL
Change | normalised enrichment score
L7A | 0.526
F8L | 0.638
E11A | 2.59
V1A | 2.43
P3A | 4.82
F8A | -0.129

Set 6
Target: Histone acetyltransferase KAT6A, both winged helices, GST fusion (KAT6A, Homo sapiens, UniProt Q92794, residues 1-181)
Technique: protein binding microarray
Form: double-stranded DNA, one strand shown
Medium: in vitro
Concentration: not given
Setting: 8-mer, flanks averaged, mean of 2 arrays, mostly near background
Reference: not given
Direction: higher = stronger binding
Construct (chain): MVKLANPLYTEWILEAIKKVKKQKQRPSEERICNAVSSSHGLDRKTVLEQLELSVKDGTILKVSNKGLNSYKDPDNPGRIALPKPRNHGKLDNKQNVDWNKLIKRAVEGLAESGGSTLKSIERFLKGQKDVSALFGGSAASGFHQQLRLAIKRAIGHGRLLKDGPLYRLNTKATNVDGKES
Sequence | E-score
ATTTGCTG | -0.0378
AGTTTGAA | 0.0671
CAGGTAGG | -0.0835
GGTGTGAC | 0.0588
GGAAGGTA | 0.0158
ACTATTCG | -0.0929
GACGTTCC | 0.0325
GGATCACA | 0.014
CACTAGCG | 0.104
CAATTCAG | -0.134
ACAACAAA | -0.0404
CACGTTCA | 0.0224
GACGGCAA | 0.284
CTGGTTGA | -0.227
CAAAATCC | -0.127
ATCGCTGC | 0.141
AGTATGTG | -0.192
AGAAATAT | -0.00545
CTATAAAC | -0.0357
ACCGAACT | -0.0639
AGTATCCC | -0.0765
GGTCTGTA | -0.037

Set 7
Target: RNA binding protein fox-1 homolog 2, RRM domain, GST-SBP tag (RBFOX2, Homo sapiens, UniProt O43251-10, residues 100-194)
Technique: RNA Bind-n-Seq
Form: RNA
Medium: in vitro
Concentration: 365 nM
Setting: natural RNA segment, single round, ends assumed
Reference: no-protein control
Direction: higher = stronger binding
Shared flanks, not repeated: GGGAGUUCUACAGUCCGACGAUC … UGGAAUUCUCGGGUGCCAA
Residues (chain): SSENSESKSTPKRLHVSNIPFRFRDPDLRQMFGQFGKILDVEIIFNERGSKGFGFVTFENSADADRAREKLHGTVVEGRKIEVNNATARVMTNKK
Sequence | RBNS enrichment (R)
UCCCUCCUGUCCCCUCACUGUCCACUUUCUGUUCUUUCCUUGGGUUUCCUGUGAAGUUGGAGGGACGUUUGUAGUCAUGUGACACUAGCCGUCCUGCCCCUGCUGUCAGA | 1.19
GCGUGUCCCAGCCCAUGCCCCUCUGUCUUCGUGGAGAGUGUUGUGUUGAGCCCAUUCAGUAGCCGAGUCUUGUCACUCUGUGCCAGCCUCAGUCCUGUGUCCCUUUUUCU | 0.227
AAAACUCUAUUUCUGUUCAUAUUAAUUCACUUGCCAGACUCCAAUUCUGAAAGUUGUCUAGUUCUUCCUUCAUCACACGUGCUUCUCAUCGAAACCCUGGUUUCAGGAUG | 0.208
GGCUCUCUGUAGGCUGGUCCUAGUAGGUGACACCCAGCAACACCCCUGUUGGACAGGAUUGAUUGUUCGCAGUCUUAGACCAACACUUCAGUCAGAAAUGUUACUGGGAG | 0.244
CAGUGGGGAUGCAGCUGUUGGACAGGUAUUGGGGGCAAGGUUGGUAGGGAGGACAGACUGUCACUUGCUGUUACAGGCACAGGUGAUUAAAAUGCUAAAUAUUGCAAAUU | 1.16
AGGUUUUCUGGUUUUAUGACUUUUUGUCUUAUUUUAUUUUUCCUACAUUUCUUUUUUUUUUUUUUUCCUUUAGAAUGCCCUGGAAAUAUAUUUAAGUGGUAAUGAAAAAU | 8.07
UUUUAGGCACUCUUAAACCAUCUGCCUCUAAAAGCAUUGGAUGUAGCAUUGCGCAAUUAGGUUGUUCCUUAUUUGCUUUGUUGUACUACCUGUGUAUAUAGUUUUUAUCU | 0.475
GAAGCAAAGAAAAUACAGGAAAAAAUAAAUCACAAUCUAUUUUUCCAAAGGGGAAACACAUUUGAAAGCUUUUAAAAUGUAGACUUCAUUAUCCAUACCCAUGGAAACUA | 0.661
GAAUCAGUGGUAGGAGCAGUGAAGUAAAUUCUAUGGAGUACAUUUCUAAAAUACCACAUUUCUGAAAUCAUAAAUAAGUUUAUUCAGGUUCUAACCCUUUGCUGUACACA | 0.433
CAGUAGGCCAAGAAAUUAUCUUUCUGGUUUUUUUCCUCUAAACUCCAUUUGGUUAGCAGACAGUGACAGCUGAGCAGGUCUGAGCACUACUGUGUCAUAGUGGACCCUGA | 0.301
UUGGAUACAUAAGAAAUGAGAAUUCCUGGUUCAUGGGCCAACCUAGGACUCUGGAGUAUGCAGACUUGGCCAUUCGUCCAUUGUGGCCUGCGGGUCGCACCCCAGGCAUA | 0.739
AGGGGACAAGACCUCCAGGAGGCCCUGUGGAGUCUCUGGUGAGGUGUGCGAUGGCAGAGCAGCAUCCAAGCAGAGAUCAGAUGUCCUCUUCAGUCUGUGGGCGGGCGAUU | 1.46

Repeated from above (set 4):
Modification | mean fluorescence intensity [a.u.]
2'F-ANA at 1 2 3 5 6 7 8 9 10 12 15 | 80.3
2'F-ANA at 3 4 5 6 8 9 10 11 12 | 69.3
2'F-ANA at 2 5 6 10 11 14 | 55.7
2'F-ANA at 1 4 5 7 8 11 14 15 | 46.5
2'F-ANA at 1 3 4 9 11 13 | 132
2'F-ANA at 1 3 7 10 11 13 14 | 81
2'F-ANA at 1 2 3 4 6 8 9 10 11 12 13 14 15 | 55.7
2'F-ANA at 1 2 4 5 7 9 10 11 12 14 | 47.7
2'F-ANA at 2 3 5 7 10 12 13 | 56.2
2'F-ANA at 2 4 11 12 13 | 379
2'F-ANA at 2 5 9 11 13 14 | 413
2'F-ANA at 1 4 8 9 12 | 348
2'F-ANA at 4 6 7 8 9 12 | 536
2'F-ANA at 7 8 9 10 | 206
2'F-ANA at 1 2 4 8 12 13 14 15 | 58.8
2'F-ANA at 1 4 5 7 11 15 | 52.4
